# Measured values from different studies.
# Parts stem from different laboratories: compare values within a part only.

# Block 1 — cell line: Huh-7; tested at: 10 µM; time: 24 h
SMILES,viability
CCc1ccc(CCOc2ccc(CC3SC(=O)NC3=O)cc2)nc1 (stereo not drawn),94.6%
O=C(CNC(=O)c1ccc(Cl)cc1)NO,97.9%
CCCCOC(=O)c1ccc(O)cc1,101%
COc1ccccc1OCC(O)CN1CCN(CC(=O)Nc2c(C)cccc2C)CC1 (stereo not drawn),96.4%
CC(C)NCC(O)COc1cccc2[nH]ccc12 (stereo not drawn),100%
OCCN1C[C@H](O)[C@@H](O)[C@H](O)[C@H]1CO,96.8%

# Block 2 — cell line: normal-adjacent organoid sample E; method: CellTiter-Glo; tested at: 1 µM; notes: replicate mean; reference: DMSO
SMILES,viability
O=C(NS(=O)(=O)c1ccc(NCC2CCOCC2)c([N+](=O)[O-])c1)c1ccc(N2CCN(Cc3ccc(C(F)(F)F)cc3-c3ccc(Cl)cc3)CC2)cc1Oc1cnc2[nH]ccc2c1,107%
C[C@H](NC(=O)c1cnc2n1[C@](C)(Cc1ccc(C#N)cc1)C(=O)N2c1cc(Cl)c(F)c(Cl)c1)C(=O)NC1(c2ccccn2)CC1,116%
c1ccc2oc(-c3csc(C4CCN(Cc5nc6ncccc6[nH]5)CC4)n3)cc2c1,49.6%
CO[C@@H](C)c1c(Nc2ccc([C@@H](N(C)C(=O)C3CCS(=O)(=O)CC3)C(F)(F)F)cc2)cnc2cc(Cl)nn12,129%
CN(C(=O)c1ccccc1)c1cc(N(C)c2ccc3c(c2)CCc2ccc(C(=O)NCCN4CCOCC4)cc2C3=O)ccc1F,110%
Cn1cc(Cl)c2c(Oc3c(F)cc(Nc4cc(Cl)nc(N)n4)cc3F)ccnc21,186%
Cc1c(C(=O)O)cc(-c2ccc(C3CCNCC3)cc2)c2ccc(-c3ccc(C(F)(F)F)cc3)cc12,109%
Cn1nc(C(=O)NCc2ccc(C(=O)O)cc2)cc1-c1ccc2[nH]ccc2c1,101%
CC(=O)C1=C(C)N(c2cccc(C(F)(F)F)c2)C(=O)N[C@@H]1c1ccc(C#N)nc1,114%
CCNC(=O)c1cc2c(N3CCOC[C@@H]3C)ccnc2[nH]1,114%
Cc1cc(NC(=O)c2cccc(S(F)(F)(F)(F)F)c2)cc(-n2ccn3nc(-c4cccnc4)cc23)c1,110%
CCOCCn1cc(C(=O)Nc2ccc(-n3nc(-c4cccnc4)cc3C(F)(F)F)cn2)ccc1=O,125%
O=C(NCc1ncc(C(F)(F)F)cc1Cl)c1ccc2c(c1)C1(CCS(=O)(=O)CC1)[C@@H](C1CC1)N2S(=O)(=O)c1ccc(F)cc1,108%
Cn1c(-c2csc(C3CCN(Cc4nc5ncccc5[nH]4)CC3)n2)nc2ccccc21,114%

# Block 3 — effect on: enzyme activity; mode: inhibitor; tested at: 0.5 µM; reference: control
# Target: Ribosomal protein S6 kinase alpha-1 (RPS6KA1, Homo sapiens, UniProt Q15418)
# Chain of UniProt Q15418 (whole entry, looked up): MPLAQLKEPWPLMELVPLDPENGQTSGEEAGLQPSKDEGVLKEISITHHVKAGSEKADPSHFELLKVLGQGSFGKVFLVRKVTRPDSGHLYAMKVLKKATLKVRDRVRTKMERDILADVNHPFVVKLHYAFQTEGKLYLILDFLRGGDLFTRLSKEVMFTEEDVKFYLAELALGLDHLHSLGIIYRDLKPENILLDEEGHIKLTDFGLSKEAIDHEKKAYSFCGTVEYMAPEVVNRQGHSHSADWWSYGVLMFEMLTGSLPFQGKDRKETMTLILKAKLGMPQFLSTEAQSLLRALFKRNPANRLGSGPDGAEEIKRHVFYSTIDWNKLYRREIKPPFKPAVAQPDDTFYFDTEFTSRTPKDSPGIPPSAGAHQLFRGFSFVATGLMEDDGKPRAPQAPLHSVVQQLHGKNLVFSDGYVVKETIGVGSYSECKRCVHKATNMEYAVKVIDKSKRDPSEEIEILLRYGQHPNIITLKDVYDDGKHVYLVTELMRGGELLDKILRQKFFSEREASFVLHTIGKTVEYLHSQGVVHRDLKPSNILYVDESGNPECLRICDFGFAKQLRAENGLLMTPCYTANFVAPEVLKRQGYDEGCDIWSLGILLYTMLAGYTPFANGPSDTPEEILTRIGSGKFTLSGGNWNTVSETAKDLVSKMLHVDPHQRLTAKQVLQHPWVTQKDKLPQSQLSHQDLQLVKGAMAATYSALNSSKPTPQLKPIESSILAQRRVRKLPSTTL
Structure (SMILES),remaining activity [%]
O=C(O)/C=C/c1cc(Br)c(Br)c(Br)c1Br,90.5
O=C1NC(=O)/C(=C/c2ccc3c(c2)OC(F)(F)O3)S1,71.1
CCN(CC)CCCCN1c2ccccc2Oc2ccc(Cl)cc21,97.5
c1cc(-c2cnn3cc(-c4ccc(OCCN5CCCCC5)cc4)cnc23)ccn1,79.2
CCCCc1c(-c2ccc(O)cc2)[nH]c2nccnc12,82.6
CC(C)N(CCC(=O)c1ccc2ccccc2c1)Cc1ccccc1,97.6
CC(C)(C)c1nc2c3cc[nH]c(=O)c3c3cc(F)ccc3c2[nH]1,38.6
N#CC(c1ccnc(NCCc2cccnc2)n1)c1nc2ccccc2s1 (stereo not drawn),79
FC(F)(F)c1ccc(/C=C/c2nc(COc3ccc(CCCCn4ccnn4)cc3)co2)cc1,97.9
Nc1nc(Nc2ccc(S(N)(=O)=O)cc2)nn1C(=S)Nc1c(F)cccc1F,5.34
O=Nc1c(-c2c(O)[nH]c3ccccc23)[nH]c2ccccc12,39.6
Clc1ccc(Nc2nnc(Cc3ccncc3)c3ccccc23)cc1,113
O=C(c1ccccc1)c1ccc(N2CCOCC2)cc1O,96.2
CNc1cc2c(Nc3cccc(Br)c3)ncnc2cn1,90.9
N#C/C(=C(/N)SC1C=CC=CC1)c1cccc(C(O)c2ccncc2)c1 (stereo not drawn),101
CC(C)n1cnc2c(Nc3cccc(Cl)c3)nc(NCCO)nc21,69.1
NC(=O)c1cccc(-c2cc(Nc3ccc(OC(F)(F)F)cc3)ncn2)c1,92.7
C[C@@H](N)[C@H]1CC[C@H](C(=O)Nc2ccncc2)CC1,84.9

# Further values, each from its own experiment
Compound,method,host,dose,quantity,result
CC(C)n1cnc(-c2ccc(F)cc2)c1-c1ncc(C(=O)Nc2ccc(N3CCN(C)CC3)cc2)[nH]1,phase 2a clinical trial,patients with idiopathic pulmonary fibrosis,30 mg once daily,patients with liver injury TEAE,0%

# For quick reference, copied from above (block 2):
SMILES,viability
Cn1nc(C(=O)NCc2ccc(C(=O)O)cc2)cc1-c1ccc2[nH]ccc2c1,101%
CC(=O)C1=C(C)N(c2cccc(C(F)(F)F)c2)C(=O)N[C@@H]1c1ccc(C#N)nc1,114%
CCNC(=O)c1cc2c(N3CCOC[C@@H]3C)ccnc2[nH]1,114%
